Measured values gathered from unrelated publications.
Every numbered part comes from another study and shows a few of its results, in no order.

Sample 1
Target: Centromere-binding protein 1, full length, N-terminal tag (CBF1, Saccharomyces cerevisiae, UniProt P17106, residues 1-351)
Chain of UniProt P17106 (whole entry, looked up): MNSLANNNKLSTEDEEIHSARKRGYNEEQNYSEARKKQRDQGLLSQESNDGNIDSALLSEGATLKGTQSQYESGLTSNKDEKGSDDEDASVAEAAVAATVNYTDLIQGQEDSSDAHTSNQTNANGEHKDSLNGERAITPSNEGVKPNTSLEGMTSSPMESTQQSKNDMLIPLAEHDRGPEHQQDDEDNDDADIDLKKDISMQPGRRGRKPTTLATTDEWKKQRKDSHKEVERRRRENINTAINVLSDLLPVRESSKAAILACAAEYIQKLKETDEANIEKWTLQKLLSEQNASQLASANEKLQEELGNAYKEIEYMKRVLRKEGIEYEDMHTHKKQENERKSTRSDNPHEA
Method: protein-binding microarray
Form: double-stranded DNA, one strand shown
Sample: in vitro
Concentration: 0.8 µM
Notes: whole 60-bp probe, no competitor
Direction: higher = stronger binding
Measurement: fluorescence intensity
Constant ends, left off below: … GTCTTGATTCGCTTGACGCTGCTG
GAACGATACAATACGCACGAGGATAATAAGCCCTAG: 725 a.u.
GAATCTTAACGGCGCAGCATCACCGGGTGATGATAG: 522 a.u.
CTATACAGTACGTGTCATGCGGTTAGTATATATTTC: 720 a.u.
CTACAGATAGATGGGCACATGGCAAACTTAGCTTTC: 855 a.u.
CCTAACTACTATACAGGTGAGACATAGCTTCGTACA: 528 a.u.
CTATTAGGTGCCTGTCACGCAATCCGTCCGCTGTTC: 606 a.u.
CTATGAATTATCCGTGATGGCAGCGTACAATCCTTC: 568 a.u.
CTAGCCAGCCGGTGTAGCCACGTGTTAAATCTTTTC: 5140 a.u.
GAAATTTAATTCTGCCACATGGTAGGTTCATTTTAG: 641 a.u.
CTAACGTCGGAGAGGCAGGTGATCTTCGGCTCGTTC: 960 a.u.
CTACCGTGCGTTCTCCCCGTGCCTTGATAAGCATTC: 687 a.u.
GAATCATTCACTGTTCAGCTGATACAAAACATATAG: 922 a.u.
GAACTCGAGTTCAATCACGTCACCAATAGTAATTAG: 715 a.u.
CTATACCACCGCCACTAGGTGACGCTAACCTACTTC: 497 a.u.
GAATACTGTTTTCGTCACGTTCCGAACAGCAGCTAG: 1660 a.u.
GAAATATCATGTTGTGATGTTAGAAAATATGGCTAG: 568 a.u.
TGTACGAAGCTATGGCGTGGGGTTATAGTAGTTAGG: 516 a.u.
CTATTGCTTGAGCCACACGTGTATATAAAAATGTTC: 4360 a.u.
CTAGTCCCTCAATTACACGTTTGTTTGCTTGCTTTC: 493 a.u.

Sample 2
Target: Fragile X messenger ribonucleoprotein 1, C-terminal low-complexity region (Fmr1, Mus musculus, UniProt P35922)
Method: RNA Bind-n-Seq
Form: RNA
Sample: in vitro
Concentration: 200 nM
Notes: whole 134-nt RNA, ends assumed
With: 150 mM KCl
Relative to: input library
Direction: higher = stronger binding
Measurement: log2 enrichment
Constant ends, left off below: GGGAGUUCUACAGUCCGACGAUC … UGGAAUUCUCGGGUGUCAAGG
UCCUCAAGUCCUGUGCUACACAUCGUAUGUACCGAAUCGGAGGGGAGGGAGGAAAGUAUUAUGUUACGCCGUUCGGAUCUGCACUUCCAG: 0.24
CUGUGCUACACAUCGUAUGUACCGAAUCGGGGCCCCCCGGGGCCCCCCGGGCCCCCCGGGGAAAGUAUUAUGUUACGCCGUUCGGAUCUG: -1.36
CCUCAAGUCCUGUGCUACACAUCGUAUGUACCGAAUCGGCGGGGCGGGCGGGGAAAGUAUUAUGUUACGCCGUUCGGAUCUGCACUUCCA: 1.06
UGGCCCUGGUGGCAUGCGGGGAGGAAGAGGUGGCCUCAUGGAUCGUGGUGGUCCCGGUGGAAUGUUCAGAGGUGGCCGUGGUGAAGACAG: -0.151
UGGGAGGUGGAUUUUGAUUAUUUUUUUAGCUCAUUUCCAGGGGUGGGAAUUUUUUUUUAAUAUGUGUCAUGAAUAAAGUUGUUUUUGAAA: 0.221
UGUACUCGGAAGUUUCACUUACCAUCGACCACUCUCUGAUUCCGGAGGAGAGGCUCUCGCCCACCCCAUCCAUGCAGGAUGGGCUCGACC: -0.194
GCAGGAAGUAAAAACAAAUGGAAAUGCUUCGGAUAGUGGCAGGGGUGGGGGUUGCUAAGGAAAGGGUGUGAUGGGAGUGGGUAAAGAGUU: 0.236
GUUUGAUGAUCGUGGACGGAGUGAUUACGAUGGCAUUGGCAGCCGUGGUGACAGAAGUGGCUUUGGCAAAUUUGAACGUGGUGGAAACAG: 0.41
GUCCUGUGCUACACAUCGUAUGUACCGAAUCGGGGUUUUUGGGGAAAAAGGGGUGGGGAAAGUAUUAUGUUACGCCGUUCGGAUCUGCAC: 0.644

Sample 3
Target: Histone acetyltransferase KAT6A, winged helix 1, GST fusion (KAT6A, Homo sapiens, UniProt Q92794, residues 1-85)
Method: protein binding microarray
Form: double-stranded DNA, one strand shown
Sample: in vitro
Concentration: not given
Notes: 8-mer, flanks averaged, mean of 2 arrays, mostly near background
Relative to: not given
Direction: higher = stronger binding
Measurement: E-score
Residues (chain): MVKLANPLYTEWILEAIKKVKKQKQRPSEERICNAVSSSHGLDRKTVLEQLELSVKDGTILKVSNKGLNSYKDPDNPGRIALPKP
ATTCAACG: -0.0379
GACGCTTA: 0.068
AACCAACT: -0.214
AGGAGCGA: 0.0321
AAGCACCT: -0.24
GTAAATAA: -0.1
AGTCGTAT: -0.0471
GAGTGATA: -0.0394
AATTTCTC: -0.155
AAATTACA: 0.0364
AAATCGAT: -0.211
GTCGTATA: 0.0503
GACGCTGA: 0.0931
GACCAGTA: -0.0145
ATTAAAGG: -0.0593
CTACGGAA: 0.0871
CAAGCGTA: 0.0428
ACTACGCA: 0.0407
AGATTCCG: 0.0997
TATAGGAA: -0.0729
GCGCTGGA: 0.319
GCTCGGAA: 0.0776
AAAGACCG: 0.197
AAAGGAGC: 0.0898
ACCGCAGA: 0.144

Sample 4
Target: Sal-like protein 4, full length isoform B (SALL4, Homo sapiens, UniProt Q9UJQ4-2, residues 1-616)
Method: universal PBM
Form: double-stranded DNA, one strand shown
Sample: in vitro
Concentration: not given
Notes: 8-mer, flanks averaged, mean of replicates
Direction: higher = stronger binding
Measurement: E-score
AAGGGACC: -0.193
ATAGTTGA: 0.327
GCGCCTGA: -0.235
GTGCGTCA: -0.147
ATCCCGAT: 0.0996
GATTCTCC: -0.228
AACGTAGC: 0.0215
ACTTTCCA: 0.216
AAGCGTCA: -0.0558
GCTACTGA: -0.0806
GCTACTCC: -0.17
AAACTCAA: 0.157
GTAGATTA: 0.286
TCACCACA: 0.00537
CTGCTCGC: -0.203
AAGTCCGC: -0.213
CCCGATCC: -0.253
ACTCAACC: 0.116
GAGATCAA: 0.0483
GCGCAAGC: -0.237
AGCGATTG: -0.0819
CGGGCTAA: -0.295
CTTACGTC: -0.229
CCTAAGTA: 0.0552
CATCCTTC: 0.0421

Some of these lines once more (sample 3):
GAGTGATA: -0.0394
ACTACGCA: 0.0407
AGGAGCGA: 0.0321
ACCGCAGA: 0.144
GCGCTGGA: 0.319
ATTAAAGG: -0.0593
AAAGACCG: 0.197
GACGCTGA: 0.0931
AGATTCCG: 0.0997
CTACGGAA: 0.0871
AATTTCTC: -0.155
